# Measurements from different studies.
# Compare with care: the assays were run in different laboratories. ± gives the spread as reported.
SMILES,test,system,conditions,quantity,value
O=[N+]([O-])NC1=NCCN1Cc1ccc(Cl)nc1,,whole cow milk,200 nM nominal,dose fraction in milk fat,2.45%
CNC(=O)c1cc(Oc2ccc(NC(=O)Nc3cc(C(C)(C)C)nn3-c3ccc4ncccc4c3)c(F)c2)ccn1,"pancreatitis, NCI CTC v3.0",human patients,"oral, 150 mg twice daily, tablet, dose at onset",related SAE,3%
COc1ccc(-c2c(-c3ccc(C#N)c(F)c3)nc(N3CCC(N)CC3)n(C)c2=O)cc1F,item: Fatigue,human patients,"oral, dose not given, dose escalation, NG",serious adverse event incidence,0%
COc1cc(C(=O)NC2CCN(C)CC2)c(F)cc1Nc1ncc(C(F)(F)F)c(Oc2cccc3c2C(=O)N(C)C3)n1,,"human patients, plasma","oral, 25 mg once daily repeated, geometric mean",mean residence time at steady state,38.4 h
COc1ncnn2ccc(-c3cnc4nc(C)n(Cc5nnc([C@@H](C)F)o5)c4c3)c12,,human,"oral, dose not given, grade 2",patients with pyrexia,7.1%
CC(C)C(=O)OC[C@H]1O[C@@H](n2ccc(NO)nc2=O)[C@H](O)[C@@H]1O,,rat maternal placenta dialysate,"5 ng/mL, low concentration, three cycles, with: NHC 25 ng/mL",freeze-thaw stability,101 ± 2.51%
COc1cc2c(Oc3ccc4[nH]c(C)cc4c3F)ccnc2cc1OCC1(N)CC1,,paediatric recurrent refractory sarcoma,8 mg/kg,grade 3 Hyperthyroidism,0%
CC(=O)c1c(C)c2cnc(Nc3ccc(C4CCN(CCS(C)(=O)=O)CC4)cn3)nc2n(C2CCCC2)c1=O,,"human, plasma","oral, 50 mg, day 1 single dose",Tmax,2.33 h
C[C@H]1CN(C(=O)CC#N)[C@]12CCN(c1ncnc3[nH]ccc13)C2,,"minipig, male and female","dermal, 1 months, highest dose given",NOAEL,12 mg/kg
C[C@]1(O)C[C@@](N)(c2ccc(-c3nc4n(c3-c3ccccc3)COc3ccncc3-4)cc2)C1,,"human, advanced or metastatic solid tumours","dose not given, all patients",patients with serious adverse event,52.9%
CC[C@H](C)[C@H](NC(=O)[C@H](C)NC(=O)[C@H](CCCCN)NC(=O)[C@H](CC(C)C)NC(=O)[C@H](C)NC(=O)[C@@H](NC(=O)[C@H](Cc1c[nH]cn1)NC(=O)[C@H](CC(C)C)NC(=O)[C@@H](NC(=O)[C@@H](NC(=O)[C@H](CCCCN)NC(=O)[C@H](C)NC(=O)[C@H](C)NC(=O)[C@H](CO)NC(=O)[C@H](CCCCN)NC(=O)[C@H](Cc1ccccc1)NC(=O)[C@@H](NC(=O)[C@H](CCCCN)NC(=O)[C@H](CC(C)C)NC(=O)[C@H](Cc1ccccc1)NC(=O)[C@H](CO)NC(=O)[C@H](CCCCN)NC(=O)[C@H](Cc1c[nH]c2ccccc12)NC(=O)[C@H](CCCCN)NC(C)=O)[C@@H](C)O)[C@@H](C)O)C(C)C)[C@@H](C)O)C(=O)N[C@@H](CO)C(=O)N[C@@H](CO)C(N)=O,,minipig,"topical on skin, 30 days",NOAEL,200 mg/pig
C=CC(=O)N1CC[C@H](n2nc(C#Cc3cc(OC)cc(OC)c3)c3c(N)ncnc32)C1,,"human patients, all","oral, dose not given, QD regimen, adverse drug reaction","blood creatinine increased, any grade",11.6%
Cc1ccc(S(=O)(=O)n2c(N)nc3ccccc32)cc1,,"mouse, plasma","intraperitoneal, 30 mg/kg, 20 min",plasma concentration,5.24 ± 0.62 µM

# For quick reference, copied from above:
SMILES,test,system,conditions,quantity,value
C[C@H]1CN(C(=O)CC#N)[C@]12CCN(c1ncnc3[nH]ccc13)C2,,"minipig, male and female","dermal, 1 months, highest dose given",NOAEL,12 mg/kg
